Results of several laboratories.
Each numbered part is a random draw from the data of one study; scales do not carry over between parts.
UniProt P42336, sequence (whole entry, unmodified, looked up): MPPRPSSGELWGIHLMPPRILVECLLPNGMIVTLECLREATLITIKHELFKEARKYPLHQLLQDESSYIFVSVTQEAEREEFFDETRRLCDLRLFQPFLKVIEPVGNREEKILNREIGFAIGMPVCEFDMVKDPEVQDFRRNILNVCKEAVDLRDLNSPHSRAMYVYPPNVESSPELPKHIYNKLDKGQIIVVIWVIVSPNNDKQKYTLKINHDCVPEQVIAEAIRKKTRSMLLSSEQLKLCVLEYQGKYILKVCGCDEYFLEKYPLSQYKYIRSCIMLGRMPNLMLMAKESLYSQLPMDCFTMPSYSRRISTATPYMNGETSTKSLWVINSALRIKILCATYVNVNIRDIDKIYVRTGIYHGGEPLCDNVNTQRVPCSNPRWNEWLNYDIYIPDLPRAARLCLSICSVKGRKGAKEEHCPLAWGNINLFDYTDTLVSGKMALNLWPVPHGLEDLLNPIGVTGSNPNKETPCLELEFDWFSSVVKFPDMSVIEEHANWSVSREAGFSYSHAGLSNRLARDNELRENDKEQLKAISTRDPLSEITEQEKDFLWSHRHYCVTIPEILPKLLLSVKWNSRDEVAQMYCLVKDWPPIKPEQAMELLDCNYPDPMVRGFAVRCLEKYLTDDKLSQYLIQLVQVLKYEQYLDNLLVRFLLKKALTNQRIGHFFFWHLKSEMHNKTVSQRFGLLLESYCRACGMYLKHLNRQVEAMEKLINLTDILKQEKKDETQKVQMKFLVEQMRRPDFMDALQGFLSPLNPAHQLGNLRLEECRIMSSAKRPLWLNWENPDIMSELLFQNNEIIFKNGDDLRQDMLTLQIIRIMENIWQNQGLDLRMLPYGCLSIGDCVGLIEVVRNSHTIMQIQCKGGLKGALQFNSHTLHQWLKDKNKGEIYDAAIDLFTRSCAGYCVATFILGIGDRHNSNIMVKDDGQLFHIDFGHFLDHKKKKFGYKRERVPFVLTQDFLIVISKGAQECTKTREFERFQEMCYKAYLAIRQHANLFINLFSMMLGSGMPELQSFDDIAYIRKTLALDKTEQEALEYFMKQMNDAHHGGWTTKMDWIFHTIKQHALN

Set 1 — tested at: 1 µM; endpoint: remaining binding
SMILES: CCCCN(CCCC)C(=O)CN1C[C@@H](c2cc(OC)c3c(c2)OCO3)[C@H](C(=O)O)[C@H]1CC(C)(C)CCC
PIK3CG (Homo sapiens, UniProt P48736); cell-free assay, competition with immobilised ligand: 90.8%
MKNK2 (Homo sapiens, UniProt Q9HBH9); cell-free assay, competition with immobilised ligand: 96.5%
NEK9 (Homo sapiens, UniProt Q8TD19); cell-free assay, competition with immobilised ligand: 84.2%
RIOK1 (Homo sapiens, UniProt Q9BRS2); cell-free assay, competition with immobilised ligand: 100%
EPHB1 (Homo sapiens, UniProt P54762); cell-free assay, competition with immobilised ligand: 100%
CSNK1E (Homo sapiens, UniProt P49674); cell-free assay, competition with immobilised ligand: 100%
CDKL5 (Homo sapiens, UniProt O76039); cell-free assay, competition with immobilised ligand: 100%
TGFBR1 (Homo sapiens, UniProt P36897); cell-free assay, competition with immobilised ligand: 100%
CDK11A (Homo sapiens, UniProt Q9UQ88); cell-free assay, competition with immobilised ligand: 98.3%
TBK1 (Homo sapiens, UniProt Q9UHD2); cell-free assay, competition with immobilised ligand: 100%
STK36 (Homo sapiens, UniProt Q9NRP7); cell-free assay, competition with immobilised ligand: 75%
CILK1 (Homo sapiens, UniProt Q9UPZ9); cell-free assay, competition with immobilised ligand: 83.5%
SIK2 (Homo sapiens, UniProt Q9H0K1); cell-free assay, competition with immobilised ligand: 100%
MAPK14 (Homo sapiens, UniProt Q16539); cell-free assay, competition with immobilised ligand: 81.3%
AKT2 (Homo sapiens, UniProt P31751); cell-free assay, competition with immobilised ligand: 100%
MAPK4 (Homo sapiens, UniProt P31152); cell-free assay, competition with immobilised ligand: 100%
MET (Homo sapiens, UniProt P08581, M1250T); cell-free assay, competition with immobilised ligand: 100%
NEK5 (Homo sapiens, UniProt Q6P3R8); cell-free assay, competition with immobilised ligand: 87.9%
Tyrosine-protein kinase ABL1, phosphorylated (ABL1, Homo sapiens, UniProt P00519, Y253F); cell-free assay, competition with immobilised ligand: 100%
PIK3CA (Homo sapiens, UniProt P42336, E545K); cell-free assay, competition with immobilised ligand: 91%
SRPK1 (Homo sapiens, UniProt Q96SB4); cell-free assay, competition with immobilised ligand: 62.5%
MKNK1 (Homo sapiens, UniProt Q9BUB5); cell-free assay, competition with immobilised ligand: 100%
ABL1 (Homo sapiens, UniProt P00519, F317I); KINOMEscan; F317I mutant, nonphosphorylated; relative to: control: 100%

Set 2 — action: degrader; technique: HiBiT; cells: HEK293; tested at: 1111.11 nM; endpoint: protein remaining
Target: CRBN/Zinc finger protein Helios (Homo sapiens, UniProt Q96SW2+Q9UKS7)
UniProt Q96SW2, sequence (whole entry, looked up): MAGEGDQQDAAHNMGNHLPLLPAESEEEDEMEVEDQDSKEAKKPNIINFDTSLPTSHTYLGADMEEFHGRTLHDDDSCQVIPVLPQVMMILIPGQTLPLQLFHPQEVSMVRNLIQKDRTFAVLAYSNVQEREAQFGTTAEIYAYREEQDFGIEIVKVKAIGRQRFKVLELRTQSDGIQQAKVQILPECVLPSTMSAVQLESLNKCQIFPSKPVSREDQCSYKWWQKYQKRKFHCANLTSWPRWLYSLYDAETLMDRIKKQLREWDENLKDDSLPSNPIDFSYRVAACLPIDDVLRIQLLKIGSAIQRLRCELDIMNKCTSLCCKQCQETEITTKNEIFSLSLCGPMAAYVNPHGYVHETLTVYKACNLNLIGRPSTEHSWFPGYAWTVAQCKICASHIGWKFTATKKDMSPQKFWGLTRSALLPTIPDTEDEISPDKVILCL
UniProt Q9UKS7, sequence (whole entry, looked up): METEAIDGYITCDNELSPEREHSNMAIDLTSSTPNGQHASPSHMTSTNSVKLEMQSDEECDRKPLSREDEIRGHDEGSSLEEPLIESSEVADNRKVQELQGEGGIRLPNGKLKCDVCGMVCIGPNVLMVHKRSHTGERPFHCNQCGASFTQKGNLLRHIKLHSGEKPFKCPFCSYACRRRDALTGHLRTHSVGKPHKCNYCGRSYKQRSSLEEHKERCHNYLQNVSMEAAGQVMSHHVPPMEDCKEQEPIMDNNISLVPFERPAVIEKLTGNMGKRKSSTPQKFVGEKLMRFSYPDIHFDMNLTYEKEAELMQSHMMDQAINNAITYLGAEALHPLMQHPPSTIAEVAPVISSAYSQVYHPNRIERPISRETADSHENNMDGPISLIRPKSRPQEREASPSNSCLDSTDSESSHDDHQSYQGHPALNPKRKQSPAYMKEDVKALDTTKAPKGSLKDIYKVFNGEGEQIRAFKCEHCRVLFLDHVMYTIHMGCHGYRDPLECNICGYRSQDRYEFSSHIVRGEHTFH
O=C1CCC(N2Cc3c(ccc4c3OCC43CCC(Oc4ccccc4)CC3)C2=O)C(=O)N1 (stereo not shown): 68.3%
O=C1CCC(N2Cc3c(ccc4c3OCCC43CCN(Cc4ccccc4)CC3)C2=O)C(=O)N1 (stereo not shown): 68.6%
O=C1CCC(N2Cc3c(ccc4c3OCC43CCC(Cc4ccccc4)CC3)C2=O)C(=O)N1 (stereo not shown): 89.8%

Set 3 — observed: enzyme activity; action: inhibitor; tested at: 77 µM; relative to: untreated; endpoint: remaining activity
Target: DNA polymerase theta, ATPase domain (POLQ, Homo sapiens, UniProt O75417)
UniProt O75417, sequence (whole entry, unmodified, looked up): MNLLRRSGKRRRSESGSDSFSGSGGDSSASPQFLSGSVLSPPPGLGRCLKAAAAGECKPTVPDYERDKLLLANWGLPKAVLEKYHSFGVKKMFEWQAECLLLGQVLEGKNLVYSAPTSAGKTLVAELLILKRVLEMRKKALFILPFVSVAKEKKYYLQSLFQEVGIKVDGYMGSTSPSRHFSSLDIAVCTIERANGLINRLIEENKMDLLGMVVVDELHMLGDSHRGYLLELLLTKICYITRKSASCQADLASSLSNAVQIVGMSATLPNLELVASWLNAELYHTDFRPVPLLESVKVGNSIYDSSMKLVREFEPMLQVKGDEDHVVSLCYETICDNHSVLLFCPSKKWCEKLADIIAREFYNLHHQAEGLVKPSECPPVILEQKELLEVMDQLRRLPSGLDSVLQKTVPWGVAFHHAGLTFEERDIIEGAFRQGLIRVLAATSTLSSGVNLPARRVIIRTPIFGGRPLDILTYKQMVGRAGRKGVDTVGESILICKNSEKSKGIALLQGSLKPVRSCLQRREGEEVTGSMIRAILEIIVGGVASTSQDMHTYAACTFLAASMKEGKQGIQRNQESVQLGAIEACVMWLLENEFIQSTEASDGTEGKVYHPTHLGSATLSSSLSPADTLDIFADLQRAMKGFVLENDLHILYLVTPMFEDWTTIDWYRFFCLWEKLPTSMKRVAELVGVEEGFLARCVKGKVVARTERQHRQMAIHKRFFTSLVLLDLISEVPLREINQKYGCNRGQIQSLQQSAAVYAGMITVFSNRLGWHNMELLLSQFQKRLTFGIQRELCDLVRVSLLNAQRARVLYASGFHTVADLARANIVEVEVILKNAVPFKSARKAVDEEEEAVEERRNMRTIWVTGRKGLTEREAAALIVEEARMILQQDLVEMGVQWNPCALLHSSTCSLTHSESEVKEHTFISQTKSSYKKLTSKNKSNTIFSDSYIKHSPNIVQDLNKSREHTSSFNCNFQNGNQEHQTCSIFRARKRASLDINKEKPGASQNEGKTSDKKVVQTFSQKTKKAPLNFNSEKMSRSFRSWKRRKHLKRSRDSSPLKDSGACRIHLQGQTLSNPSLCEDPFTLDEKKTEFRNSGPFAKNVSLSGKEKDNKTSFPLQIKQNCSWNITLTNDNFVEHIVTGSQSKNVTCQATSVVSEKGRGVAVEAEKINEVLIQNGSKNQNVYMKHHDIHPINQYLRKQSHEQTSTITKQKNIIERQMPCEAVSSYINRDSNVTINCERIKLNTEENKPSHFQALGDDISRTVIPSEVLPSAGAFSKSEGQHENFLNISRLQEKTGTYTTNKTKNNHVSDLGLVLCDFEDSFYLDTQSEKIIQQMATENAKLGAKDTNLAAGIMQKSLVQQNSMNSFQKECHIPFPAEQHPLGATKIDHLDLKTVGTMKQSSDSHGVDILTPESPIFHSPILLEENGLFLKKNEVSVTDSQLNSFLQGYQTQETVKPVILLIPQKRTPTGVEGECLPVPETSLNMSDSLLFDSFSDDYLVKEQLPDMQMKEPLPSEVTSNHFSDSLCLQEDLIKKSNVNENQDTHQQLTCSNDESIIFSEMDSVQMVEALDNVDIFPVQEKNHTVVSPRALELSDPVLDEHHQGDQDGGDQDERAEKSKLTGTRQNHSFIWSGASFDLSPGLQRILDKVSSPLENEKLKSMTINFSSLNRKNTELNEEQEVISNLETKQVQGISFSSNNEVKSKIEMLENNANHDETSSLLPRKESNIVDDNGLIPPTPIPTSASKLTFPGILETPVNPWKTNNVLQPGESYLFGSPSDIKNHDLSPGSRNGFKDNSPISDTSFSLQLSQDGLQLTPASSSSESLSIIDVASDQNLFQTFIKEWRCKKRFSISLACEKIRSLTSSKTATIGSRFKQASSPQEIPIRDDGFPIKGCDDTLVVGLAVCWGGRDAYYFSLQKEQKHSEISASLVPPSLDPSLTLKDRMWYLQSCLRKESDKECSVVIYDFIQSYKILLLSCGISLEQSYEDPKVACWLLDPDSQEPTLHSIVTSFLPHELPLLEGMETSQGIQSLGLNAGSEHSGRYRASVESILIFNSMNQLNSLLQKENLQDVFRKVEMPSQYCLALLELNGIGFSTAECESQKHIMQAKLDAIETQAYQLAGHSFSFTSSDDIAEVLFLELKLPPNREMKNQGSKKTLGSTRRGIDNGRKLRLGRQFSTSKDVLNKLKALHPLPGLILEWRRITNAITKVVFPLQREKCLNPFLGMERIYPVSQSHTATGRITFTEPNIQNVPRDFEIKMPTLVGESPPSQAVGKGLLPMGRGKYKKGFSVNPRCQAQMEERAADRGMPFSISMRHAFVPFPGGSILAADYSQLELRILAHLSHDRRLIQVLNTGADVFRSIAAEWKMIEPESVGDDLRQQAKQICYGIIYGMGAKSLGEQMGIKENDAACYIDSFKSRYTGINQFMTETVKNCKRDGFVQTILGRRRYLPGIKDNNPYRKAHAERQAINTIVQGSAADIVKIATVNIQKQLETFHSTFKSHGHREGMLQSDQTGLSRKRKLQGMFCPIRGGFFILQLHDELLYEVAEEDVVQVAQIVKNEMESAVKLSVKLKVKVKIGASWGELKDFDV
Cc1cccc(-c2[nH]ncc2-c2ccc3ncccc3n2)n1: 96.7%
N=C(N)N: 99.6%
c1ccc([C@H]2CN3CCSC3=N2)cc1: 96.1%
COc1ccc(CCC(=O)Nc2nc3ccc(Cl)cc3s2)cc1OC: 102%
N=C(N)c1ccc(OCCCCCOc2ccc(C(=N)N)cc2)cc1: 93.8%
CCCCCCCCCCCCCCCC(=O)OC(CC(=O)O)C[N+](C)(C)C (racemic): 100%
C[N+]1(C)CCCC(OC(=O)C(O)(c2ccccc2)c2ccccc2)C1 (stereo not shown): 108%
CN1C(CCl)Nc2cc(Cl)c(S(N)(=O)=O)cc2S1(=O)=O (stereo not shown): 102%
O=C(O)C1CCCNC1 (stereo not shown): 104%

Set 4 — observed: enzyme activity; action: inhibitor; tested at: 10 µM; endpoint: inhibition
Target: Calcium/calmodulin-dependent protein kinase type II subunit alpha (CAMK2A, Homo sapiens, UniProt Q9UQM7)
UniProt Q9UQM7, sequence (whole entry, looked up): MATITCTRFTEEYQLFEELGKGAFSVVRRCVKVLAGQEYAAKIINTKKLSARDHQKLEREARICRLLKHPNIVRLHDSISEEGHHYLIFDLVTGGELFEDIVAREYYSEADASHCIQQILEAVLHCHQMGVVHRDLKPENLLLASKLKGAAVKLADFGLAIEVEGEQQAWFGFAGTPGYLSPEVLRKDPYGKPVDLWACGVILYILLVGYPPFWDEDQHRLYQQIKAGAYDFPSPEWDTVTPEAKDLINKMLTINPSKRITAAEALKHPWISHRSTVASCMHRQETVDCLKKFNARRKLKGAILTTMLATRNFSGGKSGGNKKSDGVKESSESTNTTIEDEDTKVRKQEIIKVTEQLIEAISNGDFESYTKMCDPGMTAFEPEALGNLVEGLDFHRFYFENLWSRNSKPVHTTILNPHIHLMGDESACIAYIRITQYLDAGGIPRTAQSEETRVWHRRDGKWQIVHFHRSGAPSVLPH
NCC(=O)NCC(=O)O: 11%
COc1ccc(-c2cc(C(F)F)nn2-c2ccc(S(N)(=O)=O)cc2)cc1F: -4%
CC(C)(O)CCC(=O)[C@](C)(O)[C@H]1[C@H](O)C[C@@]2(C)[C@@H]3CC=C4[C@@H](C[C@H](O)[C@@H](O)C4(C)C)[C@]3(C)C(=O)C[C@]12C: -43%
CC(N)CCCC(C)(C)O (stereo not shown): 1%
O=C(OC[C@H]1O[C@@H](OC(=O)c2cc(O)c(O)c(O)c2)[C@H](OC(=O)c2cc(O)c(O)c(O)c2)[C@@H](OC(=O)c2cc(O)c(O)c(O)c2)[C@@H]1O)c1cc(O)c(O)c(O)c1: -64%
CC(C)=CCc1c(-c2ccc(O)cc2O)oc2c3c(cc(O)c2c1=O)OC(C)(C)C=C3: 26%
NNC(=O)c1ccncc1: -12%
Oc1c(Cl)cc(Cl)cc1Sc1cc(Cl)cc(Cl)c1O: -9%
C=CCCCCCCCCC(=O)O: 2%
Nc1ccn([C@@H]2O[C@H](COP(=O)(O)OP(=O)(O)OP(=O)(O)O)[C@@H](O)[C@H]2O)c(=O)n1: 0%
CC(C)=CCc1cc(-c2coc3cc(O)cc(O)c3c2=O)cc(O)c1O: -27%
CO[C@@H]1[C@H](O)[C@@H](CO)O[C@H]1n1ccc(=O)[nH]c1=O: 24%
CC(C)N(CCCCOCC(=O)O)c1cnc(-c2ccccc2)c(-c2ccccc2)n1: -14%
NC[C@H]1O[C@H](O[C@H]2[C@H](O)[C@@H](O[C@H]3O[C@H](CO)[C@@H](O)[C@H](N)[C@H]3O)[C@H](N)C[C@@H]2N)[C@H](O)[C@@H](O)[C@@H]1O: 29%

A few entries again (set 3):
O=C(O)C1CCCNC1 (stereo not shown): 104%
Cc1cccc(-c2[nH]ncc2-c2ccc3ncccc3n2)n1: 96.7%
COc1ccc(CCC(=O)Nc2nc3ccc(Cl)cc3s2)cc1OC: 102%
CCCCCCCCCCCCCCCC(=O)OC(CC(=O)O)C[N+](C)(C)C (racemic): 100%
C[N+]1(C)CCCC(OC(=O)C(O)(c2ccccc2)c2ccccc2)C1 (stereo not shown): 108%
N=C(N)c1ccc(OCCCCCOc2ccc(C(=N)N)cc2)cc1: 93.8%
c1ccc([C@H]2CN3CCSC3=N2)cc1: 96.1%
CN1C(CCl)Nc2cc(Cl)c(S(N)(=O)=O)cc2S1(=O)=O (stereo not shown): 102%
